Results of several laboratories.
A part holds a random share of what one study measured. Positions count from the first letter of the parent shown.

Study 1 — method: universal PBM; molecule type: double-stranded DNA, one strand shown; sample: in vitro; concentration: not given; direction: higher = stronger binding; endpoint: E-score
Target: Sal-like protein 4, full length isoform B (SALL4, Homo sapiens, UniProt Q9UJQ4-2, residues 1-616)
Notes: 8-mer, flanks averaged, mean of replicates
Construct (chain): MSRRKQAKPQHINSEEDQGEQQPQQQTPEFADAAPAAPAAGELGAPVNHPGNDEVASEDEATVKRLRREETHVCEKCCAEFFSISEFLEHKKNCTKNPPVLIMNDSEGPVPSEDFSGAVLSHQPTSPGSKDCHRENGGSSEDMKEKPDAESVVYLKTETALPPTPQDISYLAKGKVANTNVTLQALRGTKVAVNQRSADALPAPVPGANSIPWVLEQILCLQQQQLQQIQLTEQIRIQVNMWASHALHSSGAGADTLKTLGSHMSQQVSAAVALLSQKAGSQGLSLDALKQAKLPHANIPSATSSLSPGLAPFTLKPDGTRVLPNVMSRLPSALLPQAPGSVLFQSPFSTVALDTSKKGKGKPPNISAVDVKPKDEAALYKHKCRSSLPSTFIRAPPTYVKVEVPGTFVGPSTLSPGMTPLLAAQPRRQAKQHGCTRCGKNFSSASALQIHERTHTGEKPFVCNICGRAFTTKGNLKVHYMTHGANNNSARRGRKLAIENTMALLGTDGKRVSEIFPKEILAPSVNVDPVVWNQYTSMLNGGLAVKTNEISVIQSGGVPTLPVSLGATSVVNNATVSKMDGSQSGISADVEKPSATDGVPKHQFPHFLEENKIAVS
CCTTGCCA: 0.0674
ACGTCAGC: -0.0986
AAACGCGG: -0.105
AAGGTACT: 0.0638
AAGCTATT: 0.162
CCACCATA: 0.0767
CACAGGGC: -0.16
AACGGGGG: -0.164
GCGTTTCA: -0.0602
ACTAACAT: 0.187
CAATTTCA: 0.222
ATACAGGC: 0.152
CATAAAAA: 0.372
CTCCTGGA: -0.251
GATGTCTA: 0.164
AGCATCTA: 0.166
AAGAGGAT: 0.0466
CTAACTTA: 0.191
ATCGAGGC: -0.115
AGACTAAT: 0.0939
AGCTACTC: -0.128
CCATCTCG: -0.268
ATCAGAGG: 0.0379
CTACATGA: 0.0451
CCGCAGCA: -0.168

Study 2 — method: RNA Bind-n-Seq; molecule type: RNA; sample: in vitro; concentration: not given; relative to: input RNA pool; direction: higher = stronger binding; endpoint: bound/input enrichment
Target: RING finger protein unkempt homolog, zinc fingers 1-6, GST-SBP tag (UNK, Homo sapiens, UniProt Q9C0B0, residues 30-357)
Sequence of UniProt Q9C0B0 (30-357, looked up): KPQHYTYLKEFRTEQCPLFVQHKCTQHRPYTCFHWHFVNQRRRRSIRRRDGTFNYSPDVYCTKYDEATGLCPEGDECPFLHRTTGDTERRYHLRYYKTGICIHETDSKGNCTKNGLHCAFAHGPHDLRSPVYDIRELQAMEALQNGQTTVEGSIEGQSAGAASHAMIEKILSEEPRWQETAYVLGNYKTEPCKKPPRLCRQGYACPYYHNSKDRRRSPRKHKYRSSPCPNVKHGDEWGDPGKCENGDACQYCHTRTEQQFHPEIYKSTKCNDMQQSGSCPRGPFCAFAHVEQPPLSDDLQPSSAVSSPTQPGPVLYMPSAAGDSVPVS
Notes: RNA with constant flanks, human and mouse sites, ends assumed
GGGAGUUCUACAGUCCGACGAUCUCCAAGUUACAAAAGUUUGAGGUGCAGAGGGAAGGCCAGAUUUUUUUUUUAAUGAAAUUAUAUAGAUUAGAUCUCAGUAUUUAAACUGUUCCUCAAUUUUGUGAGGCUGUGUUGGAAAUACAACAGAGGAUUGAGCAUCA: 2.54 ratio
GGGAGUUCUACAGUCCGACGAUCUAUUACUUCUUUUUUUUUCGAACUACACUUGGGCUCCUUUUUUUGUGCUCGACUUUUCCACCCUUUUUCCCUCCCUCCUGUGCUGCUGCUUUUUGAUCUCUUCGACUAAAAUUUUUUUAUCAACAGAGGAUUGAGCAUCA: 1.22 ratio
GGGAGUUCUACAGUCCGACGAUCGCUGCUUUCCACAGUUUGGUGGGGCUGGCAGCAGUUCUUACCUGCAUGGCCGAGUACAUCGUAGAGUAUCCACAUUUUGCAAUGGAUGCCACGUCAAAUUUCACCAAGAUUGUGGCUUACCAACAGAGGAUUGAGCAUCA: 0.117 ratio
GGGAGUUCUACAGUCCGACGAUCCUGAGCAGAACCAGCCUAAAAUUACAAGAGAAAGCUUCAGAAAGUGACGCAGAAAUCAAAGACAUGAAAGAGACCAUAUUUGAAUUGGAAGACCAGGUGGAGCAGCAUCGCGCCGUCAAGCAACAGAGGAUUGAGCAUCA: 0.305 ratio
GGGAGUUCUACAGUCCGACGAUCGCCACAGAUCGGAUCUGAUCUCUUUGUGGAUUACAUUUUCAGUAAAAUGUAUGGAUCUAUCUUUUCCUUGUUCUUAUAUCUAGAUCAUGAGACUUGACUGAGGCUGUUUCCUUAUCCUCCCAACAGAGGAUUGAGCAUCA: 0.226 ratio
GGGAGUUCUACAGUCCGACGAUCGCACCAUUCAAGUUCGACAUGGAAUUGGAUGACUUGCCUAAGGAAAAGCUCAAAGAACUAAUUUUUGAAGAGACUGCUAGAUUCCAGCCAGGAUACAGAUCUUAAAUUUGUCAGGACAAGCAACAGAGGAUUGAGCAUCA: 0.274 ratio
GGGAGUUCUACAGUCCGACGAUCAAGAAAAUCAGUACUCCUGUUGAUGUCAAUAACCGUGAGAUGAUGUUGAGCAUCAUCAAUAGCUCUAUUACUACAAAAGUCAUCAGUCGGUGGUCCUCCUUGGCAUGCAACAUUGCACUGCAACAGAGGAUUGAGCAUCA: 0.22 ratio
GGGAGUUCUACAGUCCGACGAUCUGCACUGUCCCCAGAUUUUUGCAGGCAGAAGAAACAAUGAAGUUAAAUGAAACCACAGAUUUUCAGGAUUUUGAAGGAGAAGAAACUAAUGAAGUUGAACAAUUUGUAAACAAUUCAUUUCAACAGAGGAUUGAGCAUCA: 0.295 ratio
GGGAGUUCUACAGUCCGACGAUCGUACGAGGCAUAUUAAUGAAUGAGGAGGUCCUAGGAAACCAGAUUCACUUGCAUGUGACAACUAGGGAAUAUGGUGCCCGGGUCUCCAACCUACACAUGUACUCAGCUGUUUGUGCUGACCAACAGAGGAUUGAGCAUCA: 0.267 ratio
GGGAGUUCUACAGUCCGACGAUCAAGAUGGAGGGUAGCUAGGUAGCUAUGUUGGUCCGUGCUCGACCGGCCCAAUGUUGCCUUUAGUUUUGCCAUUCAGACCAGUGGGUCGGUGUGAUGAUUUAUUCCUGGCGCCCAUAUGAGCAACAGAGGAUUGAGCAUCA: 0.459 ratio
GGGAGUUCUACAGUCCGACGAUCGGCUAAGGAGUAUUGGACCCAGCGGCGACAAGAACGUUUUCGGGUUUUGUUUUUGUUUUCAAUUCUGUCUAGAUGCGAAUUUUGUGCCUGCUCCUAUCUGCUCCCCUGUACCCCUCAGCUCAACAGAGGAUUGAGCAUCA: 0.158 ratio

Study 3 — method: protein binding microarray; molecule type: double-stranded DNA, one strand shown; sample: in vitro; concentration: not given; relative to: not given; direction: higher = stronger binding; endpoint: E-score
Target: Histone acetyltransferase KAT6A, both winged helices, GST fusion (KAT6A, Homo sapiens, UniProt Q92794, residues 1-181)
Notes: 8-mer, flanks averaged, mean of 2 arrays, mostly near background
Target sequence (chain): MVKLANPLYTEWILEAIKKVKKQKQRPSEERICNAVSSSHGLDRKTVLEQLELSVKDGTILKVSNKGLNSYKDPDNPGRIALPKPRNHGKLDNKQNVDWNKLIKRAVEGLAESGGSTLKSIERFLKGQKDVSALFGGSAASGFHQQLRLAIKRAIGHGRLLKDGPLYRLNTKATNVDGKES
CAGTACAC: -0.118
GCAGAGAC: -0.0423
TAAGGATA: -0.0283
GCAATGAC: -0.117
AATCTTCT: -0.0606
GACTTGGC: -0.233
AACCGTGG: -0.0241
CCTAGATA: -0.199
GCGCCCTA: 0.219
CGTAACCC: 0.248
GAAACGGA: 0.167
AAGCCGAG: 0.0559
CGGCGCAC: 0.318
AAGGTCAG: -0.184
CATGGGAG: -0.0728
AATAGACG: 0.0382
CTGCACGA: -0.145
AGGCCATC: -0.0659
GTGCTGGA: -0.0706
TCAGGGCA: -0.185
AAGAAAGA: -0.116
ACGAAGCG: 0.114
ATCCATTA: -0.057
AACATCAT: -0.126
GGGAGCAC: -0.148

Study 4 — target: CCNB2, cyclin fold, Cln2 fusion (human); method: yeast growth competition, sequencing; sample: yeast; notes: weak parent motif; relative to: not given; direction: higher = stronger binding; endpoint: normalised enrichment score
Starting sequence: WEE1 docking peptide (human); HKTFRKLRLFDTP; partner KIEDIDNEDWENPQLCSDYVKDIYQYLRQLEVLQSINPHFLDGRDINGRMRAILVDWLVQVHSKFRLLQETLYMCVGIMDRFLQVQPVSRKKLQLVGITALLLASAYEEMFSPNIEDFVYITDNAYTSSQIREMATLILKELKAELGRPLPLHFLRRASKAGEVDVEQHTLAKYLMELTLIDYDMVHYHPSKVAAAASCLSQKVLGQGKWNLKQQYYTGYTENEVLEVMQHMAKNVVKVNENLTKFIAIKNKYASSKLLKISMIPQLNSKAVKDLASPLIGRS
F10P: 0.818
L9R: 0.375
H1L: 0.506
H1C: 0.545
P13H: -0.0152
R8F: -0.341
R5M: 0.00697
K2W: 0.0432
H1M: 0.591
L7Q: 0.967
T3Y: -0.893
P13W: 0.48
P13S: -0.00289
R5F: -0.0459
R8T: 0.639
P13R: 0.369
T12V: 0.706
R8G: -0.276
R8H: 0.714
L7Y: 0.782
T12R: 0.84
R5Q: 0.31
P13E: -0.886
L9Q: 1.36
T3S: 0.155

Study 5 — method: DHFR PCA, deep sequencing; sample: yeast; with: (+)-ABA 4.8 µM; relative to: wild-type fitted maximum; direction: higher = stronger binding; endpoint: relative binding score
Target: ABI1, truncated, D143A, DHFR fusion (Arabidopsis thaliana)
Notes: methotrexate growth selection, single substitutions
Starting sequence: PYL1, truncated, DHFR fusion (Arabidopsis thaliana); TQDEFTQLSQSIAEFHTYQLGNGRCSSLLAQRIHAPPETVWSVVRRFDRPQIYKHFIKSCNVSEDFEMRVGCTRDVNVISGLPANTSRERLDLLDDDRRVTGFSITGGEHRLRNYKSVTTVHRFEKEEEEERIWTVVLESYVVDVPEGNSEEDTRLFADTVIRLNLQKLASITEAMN; partner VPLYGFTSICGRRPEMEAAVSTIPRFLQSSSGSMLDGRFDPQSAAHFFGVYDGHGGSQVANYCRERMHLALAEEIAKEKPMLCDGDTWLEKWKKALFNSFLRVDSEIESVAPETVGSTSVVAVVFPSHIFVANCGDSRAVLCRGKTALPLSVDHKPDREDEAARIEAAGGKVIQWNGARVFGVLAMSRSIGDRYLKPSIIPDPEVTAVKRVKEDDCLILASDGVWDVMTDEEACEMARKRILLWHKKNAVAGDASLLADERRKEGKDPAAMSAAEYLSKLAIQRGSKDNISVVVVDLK
L28K: 10%
V161K: -1.21%
N85D: 65.6%
V70N: 10%
G108H: -9.3%
L164E: 8.27%
L82F: 48.7%
R155P: -9.47%
L156W: 49.9%
I52Y: 51.7%
P37C: 40.9%
L169H: 4.91%
I105Y: -8.17%
V44F: -14%
R132V: 76.2%
A35L: -3.52%
A175D: 74.9%
R163Y: 0.444%
E130H: 78.6%
K116Q: 59%
H55K: 82.4%
A30L: 70.8%
T120A: 2.13%
F66C: 57.1%

Study 6 — target: FOSL2, bZIP domain (human); method: DHFR protein complementation; sample: yeast; relative to: wild-type JUN-FOS pair; direction: higher = stronger binding; endpoint: binding fitness
Notes: single substitutions, most at no-binding floor
Starting sequence: JUN, bZIP domain (human); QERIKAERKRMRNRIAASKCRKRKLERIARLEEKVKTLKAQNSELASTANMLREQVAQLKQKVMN; partner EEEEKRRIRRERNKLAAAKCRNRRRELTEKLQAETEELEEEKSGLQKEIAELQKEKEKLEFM
S43A: 0.175 natural log
K36W: -0.197 natural log
K34T: 0.0421 natural log
R53L: -0.435 natural log
K34W: 0.11 natural log
V56Q: -0.97 natural log
A40S: 0.0652 natural log
I28G: -0.0609 natural log
Q55M: -0.0116 natural log
V35F: -0.458 natural log
T37S: 0.0348 natural log
A29F: -0.116 natural log
A40N: 0.0868 natural log
E54D: -0.0666 natural log
A49K: 0.0117 natural log
M51G: 0.0153 natural log
